Results collected from several papers.
Lines come from different studies, so protocols differ. Several values in a cell are separate wells, animals, samples, runs or records. Numbers after ± are the reported error.
Sequence of UniProt P05067 (whole entry, looked up): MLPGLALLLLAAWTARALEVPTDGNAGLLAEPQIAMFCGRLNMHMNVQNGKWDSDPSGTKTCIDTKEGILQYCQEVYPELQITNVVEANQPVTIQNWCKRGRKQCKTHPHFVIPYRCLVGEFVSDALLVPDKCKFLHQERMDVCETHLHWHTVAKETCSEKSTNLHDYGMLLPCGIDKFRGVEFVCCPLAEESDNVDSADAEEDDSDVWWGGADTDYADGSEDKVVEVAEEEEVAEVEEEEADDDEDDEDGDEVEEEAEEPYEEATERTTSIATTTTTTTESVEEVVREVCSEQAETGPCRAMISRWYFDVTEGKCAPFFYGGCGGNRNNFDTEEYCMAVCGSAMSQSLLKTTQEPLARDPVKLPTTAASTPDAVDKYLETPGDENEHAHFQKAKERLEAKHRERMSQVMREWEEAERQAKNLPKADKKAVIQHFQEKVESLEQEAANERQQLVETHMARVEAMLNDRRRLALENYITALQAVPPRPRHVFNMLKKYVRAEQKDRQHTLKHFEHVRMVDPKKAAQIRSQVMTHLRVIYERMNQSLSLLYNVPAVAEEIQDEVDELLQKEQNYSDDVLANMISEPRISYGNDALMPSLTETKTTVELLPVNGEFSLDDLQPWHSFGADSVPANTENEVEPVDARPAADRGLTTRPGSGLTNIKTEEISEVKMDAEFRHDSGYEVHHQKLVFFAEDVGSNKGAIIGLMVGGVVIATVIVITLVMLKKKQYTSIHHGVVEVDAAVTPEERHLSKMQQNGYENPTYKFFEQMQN
Sequence of UniProt P03146 (whole entry, looked up): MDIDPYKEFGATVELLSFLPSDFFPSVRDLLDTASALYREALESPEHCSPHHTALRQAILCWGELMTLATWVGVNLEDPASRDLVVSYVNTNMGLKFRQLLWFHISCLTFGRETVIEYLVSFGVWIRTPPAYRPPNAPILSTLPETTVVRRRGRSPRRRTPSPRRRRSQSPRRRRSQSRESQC
Sequence of UniProt Q04609 (whole entry, looked up): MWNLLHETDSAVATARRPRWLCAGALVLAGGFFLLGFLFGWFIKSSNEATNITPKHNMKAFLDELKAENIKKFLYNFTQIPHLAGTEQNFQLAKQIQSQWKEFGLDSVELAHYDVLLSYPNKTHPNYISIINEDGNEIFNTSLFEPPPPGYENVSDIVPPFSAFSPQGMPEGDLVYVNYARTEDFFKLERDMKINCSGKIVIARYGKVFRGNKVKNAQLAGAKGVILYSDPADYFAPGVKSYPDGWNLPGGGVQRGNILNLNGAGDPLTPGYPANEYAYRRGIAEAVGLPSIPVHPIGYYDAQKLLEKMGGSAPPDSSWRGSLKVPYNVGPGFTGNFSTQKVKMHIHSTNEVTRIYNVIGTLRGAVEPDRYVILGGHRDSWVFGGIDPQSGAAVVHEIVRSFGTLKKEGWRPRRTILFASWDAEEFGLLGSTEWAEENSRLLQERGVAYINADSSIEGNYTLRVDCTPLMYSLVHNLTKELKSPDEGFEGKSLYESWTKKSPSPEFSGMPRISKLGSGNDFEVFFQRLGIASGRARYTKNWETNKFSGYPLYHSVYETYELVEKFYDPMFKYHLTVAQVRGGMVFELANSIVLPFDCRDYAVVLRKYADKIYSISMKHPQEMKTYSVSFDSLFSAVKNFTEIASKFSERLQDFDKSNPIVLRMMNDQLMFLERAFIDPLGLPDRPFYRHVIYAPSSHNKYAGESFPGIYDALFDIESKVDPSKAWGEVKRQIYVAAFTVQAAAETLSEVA
Sequence of UniProt Q14012 (whole entry, looked up): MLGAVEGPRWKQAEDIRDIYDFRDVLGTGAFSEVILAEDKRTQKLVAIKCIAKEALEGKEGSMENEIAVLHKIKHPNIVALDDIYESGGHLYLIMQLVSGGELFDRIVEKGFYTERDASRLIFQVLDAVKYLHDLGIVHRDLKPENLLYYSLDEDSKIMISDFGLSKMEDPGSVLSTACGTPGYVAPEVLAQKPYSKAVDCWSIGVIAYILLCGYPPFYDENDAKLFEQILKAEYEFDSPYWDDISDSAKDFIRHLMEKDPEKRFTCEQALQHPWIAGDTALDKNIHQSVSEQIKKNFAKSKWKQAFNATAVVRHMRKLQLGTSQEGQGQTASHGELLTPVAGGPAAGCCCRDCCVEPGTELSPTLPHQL
Sequence of UniProt O60331 (whole entry, looked up): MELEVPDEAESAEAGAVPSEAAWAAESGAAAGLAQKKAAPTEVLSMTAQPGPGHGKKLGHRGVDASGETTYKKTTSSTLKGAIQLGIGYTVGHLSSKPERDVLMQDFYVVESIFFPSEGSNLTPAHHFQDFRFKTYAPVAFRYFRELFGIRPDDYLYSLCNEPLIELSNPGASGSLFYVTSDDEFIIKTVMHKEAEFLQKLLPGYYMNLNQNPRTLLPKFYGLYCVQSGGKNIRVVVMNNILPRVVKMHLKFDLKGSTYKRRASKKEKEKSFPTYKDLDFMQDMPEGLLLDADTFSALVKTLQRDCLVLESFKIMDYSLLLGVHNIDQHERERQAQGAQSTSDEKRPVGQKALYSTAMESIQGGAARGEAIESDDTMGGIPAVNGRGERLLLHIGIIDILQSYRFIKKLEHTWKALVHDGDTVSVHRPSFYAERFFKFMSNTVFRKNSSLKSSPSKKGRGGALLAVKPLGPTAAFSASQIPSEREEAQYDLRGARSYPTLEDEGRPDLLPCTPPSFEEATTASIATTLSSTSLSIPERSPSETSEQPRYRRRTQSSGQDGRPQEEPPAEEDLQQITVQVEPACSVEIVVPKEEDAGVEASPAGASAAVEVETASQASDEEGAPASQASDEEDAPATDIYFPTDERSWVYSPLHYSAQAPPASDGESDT

O=C(O)c1ccc(Nc2ncc3c(n2)-c2ccc(Cl)cc2C(c2c(F)cccc2F)=NC3)cc1 has a remaining activity of 80% (EphA5(h); kinase activity; 1 µM).
With NC1CCN(S(=O)(=O)c2cc(C(=O)Nc3cc(F)c(F)c(F)c3)ccc2F)CC1 the kon was 66.9 M⁻¹ s⁻¹ (Capsid protein (C, Hepatitis B virus genotype D subtype ayw, UniProt P03146); surface plasmon resonance; 25 °C).
O=C(COP(=O)(O)O)[C@@H](O)[C@H](O)[C@H](O)COP(=O)(O)O: “thermal stability ratio” 0.857 and 0.476 and 0.583 (Actin, alpha skeletal muscle (ACTA1, Homo sapiens, UniProt P68133); thermal proteome profiling, refers to: ACTA1; HepG2 cell lysate; concentration not given, 57 over 37 °C; relative to: compound over control).
CNc1ccc(-c2nc3ccc(O)cc3s2)cc1 has an inhibition of 87% and 78.8% (Amyloid-beta precursor protein, amyloid-beta (APP, Homo sapiens, UniProt P05067); binding, competition binding; amyloid-beta aggregates; 33.33 nM, added: tritiated amyloid ligand).
CC(C)[C@H](NC(=O)c1cc(-c2cnn3cc(-c4ccc(OCCN5CCCCC5)cc4)cnc23)cs1)C(F)(F)F has a relative inhibition of 0.0455 (PLK2 (human); radiometric kinase; 15 nM; relative to: PLK2 over ULK1).
For CN(Cc1cccnc1)C(=O)c1ccc([C@H]2[C@@H](F)[C@@H](F)C[C@@H](F)[C@H]2F)cc1, the hepatic clearance was 1.26 L/h/kg (liver microsome stability; cynomolgus liver microsomes; 1 µM).
Under “fold potency loss”, CC[C@H](C)[C@H](NC(=O)[C@H](Cc1ccccc1)NC(=O)[C@H](CCC(=O)O)NC(=O)[C@H](CCCNC(=N)N)NC(=O)[C@H](C)NC(=O)[C@H](C)NC(=O)[C@H](CCC(N)=O)NC(=O)[C@H](CCCCNc1c(NCCCCCN(O)C(=O)CCC(=O)NCCCCCN(O)C(=O)CCC(=O)NCCCCCN(O)C(C)=O)c(=O)c1=O)NC(=O)[C@H](CCC(=O)O)NC(=O)[C@H](CC(C)C)NC(=O)[C@H](Cc1ccc(O)cc1)NC(=O)[C@H](CO)NC(=O)[C@H](CO)NC(=O)[C@@H](NC(=O)[C@H](CC(=O)O)NC(=O)[C@H](CO)NC(=O)[C@@H](NC(=O)[C@H](Cc1ccccc1)NC(=O)[C@@H](NC(=O)CNC(=O)[C@H](CCC(=O)O)NC(=O)[C@H](C)NC(=O)CCc1cnc[nH]1)[C@@H](C)O)[C@@H](C)O)C(C)C)C(=O)N[C@@H](C)C(=O)N[C@@H](Cc1c[nH]c2ccccc12)C(=O)N[C@@H](CC(C)C)C(=O)N[C@H](C(=O)N[C@@H](CCCNC(=N)N)C(=O)NCC(=O)N[C@@H](CCCNC(=N)N)C(=O)N[C@@H](CCCCNC(=O)COCCOCCNC(=O)COCCOCCNC(=O)CC[C@H](NC(=O)CCCCCCCCCCCCCCCCC(=O)O)C(=O)O)C(=O)NCC(=O)NCC(=O)N[C@@H](CO)C(=O)N[C@@H](CCCCNc1c(NCCCCCN(O)C(=O)CCC(=O)NCCCCCN(O)C(=O)CCC(=O)NCCCCCN(O)C(C)=O)c(=O)c1=O)C(=O)O)C(C)C is recorded as 4 (Glucagon-like peptide 1 receptor (GLP1R, Homo sapiens, UniProt P43220); agonist, CRE luciferase reporter; BHK cells; Zr-loaded DFO conjugate, added: 0% HSA; relative to: parent peptide).
For COCCN(C)C(=O)c1ccc(C2CCCCC2)cc1, the hepatic clearance was 3.06 L/h/kg (liver microsome stability; rat liver microsomes; 1 µM).
For CC1(C)S[C@@H]2[C@H](NC(=O)[C@H](N)c3ccccc3)C(=O)N2[C@H]1C(=O)O, the Km was 298 ± 27 µM (beta-lactamase RAD-1 (Riemerella anatipestifer); substrate, continuous spectrophotometric hydrolysis; 30 °C).
With CC(C)C(=O)Nc1n[nH]c2cc(-c3cccc(NS(=O)(=O)C4CC4)c3)ccc12 the ADP produced was 2.76 µM (Phosphatidylinositol 4-phosphate 5-kinase type-1 gamma (PIP5K1C, Homo sapiens, UniProt O60331); ADP-Glo; 41.2 nM, added: 10 µM ATP).
O=C(O)CC[C@H](NC(=O)N[C@@H](CCCCNC(=O)CCCCCCC(=O)NCCCC[C@@H](NC(=O)[C@H](CCC(=O)O)NC(=O)[C@H](CCC(=O)O)NC(=O)CCC(=O)NCCCN1CC[S][Tc]2(=[O])[S]CC[N]2CC1)C(=O)O)C(=O)O)C(=O)O (stereo partly drawn) [technetium-99m labelled] has a Bmax of 12 µmol/mg (Glutamate carboxypeptidase 2 (FOLH1, Homo sapiens, UniProt Q04609); saturation binding; LNCaP).
With CC[C@@H]1[C@H](F)C(=O)N[C@@H]1COc1nccc2cc(C(N)=O)c(OC)cc12 the inhibition was -2.6% (Calcium/calmodulin-dependent protein kinase type 1 (CAMK1, Homo sapiens, UniProt Q14012); ATP probe binding, KiNativ profiling, refers to: Lys1 probe site; THP-1 cell lysate; 0.01 mM).
